Results of several laboratories.
Each numbered part is a random draw from the data of one study; scales do not carry over between parts. Changes are numbered by the printed parent chain.

Series 1
Target: Histone acetyltransferase KAT6A, winged helix 1, GST fusion (KAT6A, Homo sapiens, UniProt Q92794, residues 1-85)
Technique: protein binding microarray
Form: double-stranded DNA, one strand shown
Sample: in vitro
Concentration: not given
Setting: 8-mer, flanks averaged, mean of 2 arrays, mostly near background
Relative to: not given
Direction: higher = stronger binding
Construct (chain): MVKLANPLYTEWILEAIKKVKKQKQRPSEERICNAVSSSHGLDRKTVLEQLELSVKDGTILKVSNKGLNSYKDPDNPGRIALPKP
Oligonucleotide	E-score
TGCTACCA	-0.19
GGAATGGA	-0.0475
AACAAGAT	-0.0666
GCATTCAA	-0.201
AATCGACT	-0.195
AGCAATAA	-0.283
CTAGGCCC	0.0919
GTAAGGAA	-0.223
GCTTCACC	-0.00338
AATTGCTG	0.0232
AAATCGGA	-0.145
ATCATTAA	-0.0638
AAATAAGT	-0.351
AGTGTGGC	0.0162
CATCAGGG	-0.112
ATAATCAG	-0.086
CCAACCCG	0.312
CGACTAGA	-0.147
GGTCTCAA	0.0431
GTTTAAAA	-0.132

Series 2
Target: CCND2, cyclin fold, Cln2 fusion (human)
Technique: yeast growth competition, sequencing
Sample: yeast
Setting: weak parent motif
Relative to: not given
Direction: higher = stronger binding
Starting sequence: WEE1 docking peptide (human); HKTFRKLRLFDTP
Substitution	normalised enrichment score
HKTFRKLILFDTP [R8I]	0.561
HKTFRRLRLFDTP [K6R]	0.758
HKTFRDLRLFDTP [K6D]	0.669
HKTFRVLRLFDTP [K6V]	-0.186
HKTFRKLRLFQTP [D11Q]	0.858
HKTFRKLVLFDTP [R8V]	0.113
HKTFRKLRLFMTP [D11M]	0.099
HKTFRKLRLFDTD [P13D]	0.263
HKTFRKLGLFDTP [R8G]	0.0437
HKTFRKKRLFDTP [L7K]	0.336
HKTFRKYRLFDTP [L7Y]	-0.0257
HKTFRKLRLFDTE [P13E]	-0.201
HKTTRKLRLFDTP [F4T]	0.307
HKTFRKLRLEDTP [F10E]	0.0581
HKTFRKLRLFWTP [D11W]	0.0417

Series 3
Target: ABI1, truncated, D143A, DHFR fusion (Arabidopsis thaliana)
Technique: DHFR PCA, deep sequencing
Sample: yeast
Setting: methotrexate growth selection, single substitutions
Added: (+)-ABA 4.8 µM
Relative to: wild-type fitted maximum
Direction: higher = stronger binding
Starting sequence: PYL1, truncated, DHFR fusion (Arabidopsis thaliana); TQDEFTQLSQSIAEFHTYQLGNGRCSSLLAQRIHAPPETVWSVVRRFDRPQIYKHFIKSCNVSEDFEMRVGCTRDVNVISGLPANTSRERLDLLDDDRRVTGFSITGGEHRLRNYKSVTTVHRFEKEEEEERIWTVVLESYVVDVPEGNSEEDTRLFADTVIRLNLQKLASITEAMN
Substitution	relative binding score [%]
I105M	11.3
N149S	66.6
D97P	15.1
S87D	6.06
L20S	76.5
G148H	20.8
Q19M	52.5
L28V	66.7
N165F	-10
G148V	4.5
P146N	1.43
R88I	78.1
G107I	-6.91
R24D	18.4

Mixed results
Substance	target	assay	test system	conditions	scale	measurement	result
PhoQ, residues 284 288 289 292 302 303 SASVAL	PhoP, residues 12 14 15 18 19 GHCSL (Escherichia coli, UniProt P23836)	Sort-seq, refers to: YFP reporter	E. coli	PhoQ-PhoP variant library, added: 10 µM Mg2+	relative to: high Mg2+ state, higher = stronger signaling	fold induction	13

A few entries again (series 1):
Oligonucleotide	E-score
GTAAGGAA	-0.223
GCATTCAA	-0.201
CCAACCCG	0.312
